# Measurements from different studies.
# Each line is one published result; not all experiments were run side by side. Values joined by “and” are separate records of one study, mostly repeats; a detail may differ.
# PTGES3: PTGES3 (Homo sapiens, UniProt Q15185)
# Sequence of UniProt Q15185 (whole entry, looked up): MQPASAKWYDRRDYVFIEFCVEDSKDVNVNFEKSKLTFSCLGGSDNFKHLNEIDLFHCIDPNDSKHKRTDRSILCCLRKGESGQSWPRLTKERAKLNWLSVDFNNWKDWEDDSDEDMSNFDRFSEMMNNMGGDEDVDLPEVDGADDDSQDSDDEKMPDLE
# xseA/xseB 1-456;1-80 H238A: xseA/xseB 1-456;1-80 H238A (Escherichia coli)
# T1: xseA/xseB 1-456;1-80 H238A (Escherichia coli); chain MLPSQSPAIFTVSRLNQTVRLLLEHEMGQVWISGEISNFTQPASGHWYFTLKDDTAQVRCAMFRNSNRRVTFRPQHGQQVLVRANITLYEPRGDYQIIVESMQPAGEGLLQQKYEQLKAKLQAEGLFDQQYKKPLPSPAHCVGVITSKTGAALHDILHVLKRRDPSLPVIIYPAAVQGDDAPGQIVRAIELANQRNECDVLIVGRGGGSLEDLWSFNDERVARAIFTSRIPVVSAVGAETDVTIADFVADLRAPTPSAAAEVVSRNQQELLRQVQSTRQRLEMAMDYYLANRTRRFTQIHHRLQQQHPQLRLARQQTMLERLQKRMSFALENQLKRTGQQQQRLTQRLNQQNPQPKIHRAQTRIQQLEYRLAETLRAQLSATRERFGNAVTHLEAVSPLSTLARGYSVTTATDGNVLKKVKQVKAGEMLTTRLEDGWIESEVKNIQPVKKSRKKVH; chain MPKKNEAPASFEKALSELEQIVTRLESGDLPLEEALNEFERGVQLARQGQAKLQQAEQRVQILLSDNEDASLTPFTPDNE
# B1: UGT76G1 (Stevia rebaudiana, UniProt Q6VAB4); chain MENKTETTVRRRRRIILFPVPFQGHINPILQLANVLYSKGFSITIFHTNFNKPKTSNYPHFTFRFILDNDPQDERISNLPTHGPLAGMRIPIINEHGADELRRELELLMLASEEDEEVSCLITDALWYFAQSVADSLNLRRLVLMTSSLFNFHAHVSLPQFDELGYLDPDDKTRLEEQASGFPMLKVKDIKSAYSNWQILKEILGKMIKQTKASSGVIWNSFKELEESELETVIREIPAPSFLIPLPKHLTASSSSLLDHDRTVFQWLDQQPPSSVLYVSFGSTSEVDEKDFLEIARGLVDSKQSFLWVVRPGFVKGSTWVEPLPDGFLGERGRIVKWVPQQEVLAHGAIGAFWTHSGWNSTLESVCEGVPMIFSDFGLDQPLNARYMSDVLKVGVYLENGWERGEIANAIRRVMVDEEGEYIRQNARVLKQKADVSLMKGGSSYESLESLVSYISSL
# B2: enzyme (Arabidopsis thaliana, UniProt Q9LFJ8); chain MTKPSDPTRDSHVAVLAFPFGTHAAPLLTVTRRLASASPSTVFSFFNTAQSNSSLFSSGDEADRPANIRVYDIADGVPEGYVFSGRPQEAIELFLQAAPENFRREIAKAETEVGTEVKCLMTDAFFWFAADMATEINASWIAFWTAGANSLSAHLYTDLIRETIGVKEVGERMEETIGVISGMEKIRVKDTPEGVVFGNLDSVFSKMLHQMGLALPRATAVFINSFEDLDPTLTNNLRSRFKRYLNIGPLGLLSSTLQQLVQDPHGCLAWMEKRSSGSVAYISFGTVMTPPPGELAAIAEGLESSKVPFVWSLKEKSLVQLPKGFLDRTREQGIVVPWAPQVELLKHEATGVFVTHCGWNSVLESVSGGVPMICRPFFGDQRLNGRAVEVVWEIGMTIINGVFTKDGFEKCLDKVLVQDDGKKMKCNAKKLKELAYEAVSSKGRSSENFRGLLDAVVNII
# B3: bioZ (Agrobacterium fabrum, UniProt Q7CTU0); chain MQTRSSRMAGFGHAVPARCVDNAEIEASLGLEAGWIERRTGIRSRYWAEAGDTLSGLAERAGRMALEDAKINADDIALTLLATSTPDHLLPPSAPLLAHRLGLTRSGAIDLAGACSGFLYALTLADGFVRTYGRAVLVVAANILSRRINPAERASAVLFADAAGAVVLTPCPEVKRGVLSADLVADGSGYDLIQIAAGGSSQPFSAGMIAEDALMTMRDGREVFSRAVALMTNTSQRVLHEAELTAADISRFVPHQANARMSDAVCGNLGIEREKTVRTIGSFGNSSAATIPLSLSITNAERPLAGGETLLLTAAGAGMTGGAVVYRV
# B4: SIRT5 R105A (Homo sapiens, UniProt Q9NXA8); chain ARPSSSMADFRKFFAKAKHIVIISGAGVSAESGVPTFRGAGGYWRKWQAQDLATPLAFAHNPSRVWEFYHYAREVMGSKEPNAGHRAIAECETRLGKQGRRVVVITQNIDELHRKAGTKNLLEIHGSLFKTRCTSCGVVAENYKSPICPALSGKGAPEPGTQDASIPVEKLPRCEEAGCGGLLRPHVVWFGENLDPAILEEVDRELAHCDLCLVVGTSSVVYPAAMFAPQVAARGVPVAEFNTETTPATNRFRFHFQGPCGTTLPEALA
# B5: PTPN2 (Homo sapiens, UniProt P17706); chain MPTTIEREFEELDTQRRWQPLYLEIRNESHDYPHRVAKFPENRNRNRYRDVSPYDHSRVKLQNAENDYINASLVDIEEAQRSYILTQGPLPNTCCHFWLMVWQQKTKAVVMLNRIVEKESVKCAQYWPTDDQEMLFKETGFSVKLLSEDVKSYYTVHLLQLENINSGETRTISHFHYTTWPDFGVPESPASFLNFLFKVRESGSLNPDHGPAVIHCSAGIGRSGTFSLVDTCLVLMEKGDDINIKQVLLNMRKYRMGLIQTPDQLRFSYMAIIEGAKCIKGDSSIQKRWKELSKEDLSPAFDHSPNKIMTEKYNGNRIGLEEEKLTGDRCTGLSSKMQDTMEENSESALRKRIREDRKATTAQKVQQMKQRLNENERKRKRWLYWQPILTKMGFMSVILVGAFVGWTLFFQQNAL
# B6: UGT1A4 (Homo sapiens, UniProt P22310); chain GKVLVVPTDGSPWLSMREALRELHARGHQAVVLTPEVNMHIKEEKFFTLTAYAVPWTQKEFDRVTLGYTQGFFETEHLLKRYSRSMAIMNNVSLALHRCCVELLHNEALIRHLNATSFDVVLTDPVNLCGAVLAKYLSIPAVFFWRYIPCDLDFKGTQCPNPSSYIPKLLTTNSDHMTFLQRVKNMLYPLALSYICHTFSAPYASLASELFQREVSVVDLVSYASVWLFRGDFVMDYPRPIMPNMVFIGGINCANGKPLSQEFEAYINASGEHGIVVFSLGSMVSEIPEKKAMAIADALGKIPQTVLWRYTGTRPSNLANNTILVKWLPQNDLLGHPMTRAFITHAGSHGVYESICNGVPMVMMPLFGDQMDNAKRMETKGAGVTLNVLEMTSEDLENALKAVINDKSYKENIMRLSSLHKDRPVEPLDLAVFWVEFVMRHKGAPHLRPAAHDLTWYQYHSLDVIGFLLAVVLTVAFITFKCCAYGYRKCLGKKGRVKKAHKSKTH
# B7: CASP10 (Homo sapiens, UniProt Q92851); chain 1 VKTFLEALPQESWQNKHAGSNGNRATNGAPSLVSRGMQGASANTLNSETSTKRAAVYRMNRNHRGLCVIVNNHSFTSLKDRQGTHKDAEILSHVFQWLGFTVHIHNNVTKVEMEMVLQKQKCNPAHADGDCFVFCILTHGRFGAVYSSDEALIPIREIMSHFTALQCPRLAEKPKLFFIQACQGEEIQPSVSIEAD; chain 2 ALNPEQAPTSLQDSIPAEADFLLGLATVPGYVSFRHVEEGSWYIQSLCNHLKKLVPRMLKFLEKTMEIRGRKRTVWGAKQISATSLPTAISAQTPRPPMRRWSSVS
# Sequence of UniProt O15438 (whole entry, looked up): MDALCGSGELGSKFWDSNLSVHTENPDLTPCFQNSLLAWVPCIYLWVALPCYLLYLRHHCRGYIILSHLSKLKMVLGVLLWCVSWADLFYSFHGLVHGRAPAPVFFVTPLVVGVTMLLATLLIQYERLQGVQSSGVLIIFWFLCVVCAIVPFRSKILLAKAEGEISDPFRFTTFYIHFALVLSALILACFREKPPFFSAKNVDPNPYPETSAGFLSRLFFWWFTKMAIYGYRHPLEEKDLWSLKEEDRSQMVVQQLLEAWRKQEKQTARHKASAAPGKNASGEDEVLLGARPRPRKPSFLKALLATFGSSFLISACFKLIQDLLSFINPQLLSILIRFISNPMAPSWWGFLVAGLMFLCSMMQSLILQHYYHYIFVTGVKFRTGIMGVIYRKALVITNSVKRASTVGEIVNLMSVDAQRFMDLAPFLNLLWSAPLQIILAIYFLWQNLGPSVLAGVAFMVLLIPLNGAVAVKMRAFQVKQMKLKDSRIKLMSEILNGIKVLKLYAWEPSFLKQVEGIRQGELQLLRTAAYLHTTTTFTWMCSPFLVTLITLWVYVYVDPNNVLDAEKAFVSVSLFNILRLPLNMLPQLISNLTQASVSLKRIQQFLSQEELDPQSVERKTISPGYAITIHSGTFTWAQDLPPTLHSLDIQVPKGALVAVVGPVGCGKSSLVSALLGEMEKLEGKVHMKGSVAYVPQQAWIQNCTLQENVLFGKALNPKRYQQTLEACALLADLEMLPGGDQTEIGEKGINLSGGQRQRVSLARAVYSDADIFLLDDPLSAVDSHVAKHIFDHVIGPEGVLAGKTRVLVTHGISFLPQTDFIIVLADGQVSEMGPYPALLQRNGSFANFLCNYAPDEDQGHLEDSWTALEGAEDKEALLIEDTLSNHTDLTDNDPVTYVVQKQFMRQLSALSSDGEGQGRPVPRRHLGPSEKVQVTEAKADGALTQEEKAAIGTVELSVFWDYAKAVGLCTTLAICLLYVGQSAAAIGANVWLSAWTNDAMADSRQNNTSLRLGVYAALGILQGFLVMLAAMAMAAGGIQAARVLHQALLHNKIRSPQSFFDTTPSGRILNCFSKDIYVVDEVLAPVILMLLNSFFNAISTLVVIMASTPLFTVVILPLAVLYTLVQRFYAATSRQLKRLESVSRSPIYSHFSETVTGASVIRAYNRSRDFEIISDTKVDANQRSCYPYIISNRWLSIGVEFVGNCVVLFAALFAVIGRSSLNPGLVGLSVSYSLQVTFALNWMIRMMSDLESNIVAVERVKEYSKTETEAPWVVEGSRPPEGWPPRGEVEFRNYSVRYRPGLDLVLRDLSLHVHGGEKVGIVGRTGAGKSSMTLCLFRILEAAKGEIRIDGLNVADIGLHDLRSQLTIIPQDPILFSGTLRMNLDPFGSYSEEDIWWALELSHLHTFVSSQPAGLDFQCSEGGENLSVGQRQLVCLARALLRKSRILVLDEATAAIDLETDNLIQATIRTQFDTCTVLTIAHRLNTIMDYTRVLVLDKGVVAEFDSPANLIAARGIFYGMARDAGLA
# Sequence of UniProt Q9Y6L6 (whole entry, looked up): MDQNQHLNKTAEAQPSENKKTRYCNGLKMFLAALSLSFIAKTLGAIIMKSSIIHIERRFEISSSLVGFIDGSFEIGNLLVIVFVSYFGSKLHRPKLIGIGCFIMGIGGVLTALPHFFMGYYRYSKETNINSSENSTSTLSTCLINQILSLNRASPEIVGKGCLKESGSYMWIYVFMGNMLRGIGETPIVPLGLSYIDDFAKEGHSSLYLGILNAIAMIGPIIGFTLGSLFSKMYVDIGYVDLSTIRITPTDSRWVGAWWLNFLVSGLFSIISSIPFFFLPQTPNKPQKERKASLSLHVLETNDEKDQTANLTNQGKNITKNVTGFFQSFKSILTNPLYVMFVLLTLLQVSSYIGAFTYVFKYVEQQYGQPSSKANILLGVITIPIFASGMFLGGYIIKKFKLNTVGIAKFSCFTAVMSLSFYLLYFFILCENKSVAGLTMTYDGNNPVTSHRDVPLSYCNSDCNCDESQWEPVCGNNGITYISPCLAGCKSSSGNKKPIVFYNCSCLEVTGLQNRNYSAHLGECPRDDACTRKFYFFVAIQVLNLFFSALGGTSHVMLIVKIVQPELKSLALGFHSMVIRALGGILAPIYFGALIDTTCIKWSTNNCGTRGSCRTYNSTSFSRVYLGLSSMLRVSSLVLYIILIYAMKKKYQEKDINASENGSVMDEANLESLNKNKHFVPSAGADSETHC
# Sequence of UniProt O94956 (whole entry, looked up): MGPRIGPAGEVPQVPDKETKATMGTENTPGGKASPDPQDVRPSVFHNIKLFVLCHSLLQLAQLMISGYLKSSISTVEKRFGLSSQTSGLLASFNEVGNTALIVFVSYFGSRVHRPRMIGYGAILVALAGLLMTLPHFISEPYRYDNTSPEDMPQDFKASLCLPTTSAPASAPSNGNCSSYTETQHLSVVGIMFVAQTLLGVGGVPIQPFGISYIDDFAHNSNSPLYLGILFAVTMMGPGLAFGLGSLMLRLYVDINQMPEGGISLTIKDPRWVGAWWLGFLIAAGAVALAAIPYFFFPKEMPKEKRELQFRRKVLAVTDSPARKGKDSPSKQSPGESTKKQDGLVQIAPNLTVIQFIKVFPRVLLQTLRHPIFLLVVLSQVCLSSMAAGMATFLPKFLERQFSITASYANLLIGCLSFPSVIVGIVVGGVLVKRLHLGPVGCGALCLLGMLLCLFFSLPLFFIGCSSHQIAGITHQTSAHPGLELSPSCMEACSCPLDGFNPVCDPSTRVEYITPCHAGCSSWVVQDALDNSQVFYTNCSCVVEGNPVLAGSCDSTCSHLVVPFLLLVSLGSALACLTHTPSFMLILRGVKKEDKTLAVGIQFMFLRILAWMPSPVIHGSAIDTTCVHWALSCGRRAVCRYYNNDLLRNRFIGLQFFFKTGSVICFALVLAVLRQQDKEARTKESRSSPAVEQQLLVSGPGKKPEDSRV
# Sequence of UniProt Q92887 (whole entry, looked up): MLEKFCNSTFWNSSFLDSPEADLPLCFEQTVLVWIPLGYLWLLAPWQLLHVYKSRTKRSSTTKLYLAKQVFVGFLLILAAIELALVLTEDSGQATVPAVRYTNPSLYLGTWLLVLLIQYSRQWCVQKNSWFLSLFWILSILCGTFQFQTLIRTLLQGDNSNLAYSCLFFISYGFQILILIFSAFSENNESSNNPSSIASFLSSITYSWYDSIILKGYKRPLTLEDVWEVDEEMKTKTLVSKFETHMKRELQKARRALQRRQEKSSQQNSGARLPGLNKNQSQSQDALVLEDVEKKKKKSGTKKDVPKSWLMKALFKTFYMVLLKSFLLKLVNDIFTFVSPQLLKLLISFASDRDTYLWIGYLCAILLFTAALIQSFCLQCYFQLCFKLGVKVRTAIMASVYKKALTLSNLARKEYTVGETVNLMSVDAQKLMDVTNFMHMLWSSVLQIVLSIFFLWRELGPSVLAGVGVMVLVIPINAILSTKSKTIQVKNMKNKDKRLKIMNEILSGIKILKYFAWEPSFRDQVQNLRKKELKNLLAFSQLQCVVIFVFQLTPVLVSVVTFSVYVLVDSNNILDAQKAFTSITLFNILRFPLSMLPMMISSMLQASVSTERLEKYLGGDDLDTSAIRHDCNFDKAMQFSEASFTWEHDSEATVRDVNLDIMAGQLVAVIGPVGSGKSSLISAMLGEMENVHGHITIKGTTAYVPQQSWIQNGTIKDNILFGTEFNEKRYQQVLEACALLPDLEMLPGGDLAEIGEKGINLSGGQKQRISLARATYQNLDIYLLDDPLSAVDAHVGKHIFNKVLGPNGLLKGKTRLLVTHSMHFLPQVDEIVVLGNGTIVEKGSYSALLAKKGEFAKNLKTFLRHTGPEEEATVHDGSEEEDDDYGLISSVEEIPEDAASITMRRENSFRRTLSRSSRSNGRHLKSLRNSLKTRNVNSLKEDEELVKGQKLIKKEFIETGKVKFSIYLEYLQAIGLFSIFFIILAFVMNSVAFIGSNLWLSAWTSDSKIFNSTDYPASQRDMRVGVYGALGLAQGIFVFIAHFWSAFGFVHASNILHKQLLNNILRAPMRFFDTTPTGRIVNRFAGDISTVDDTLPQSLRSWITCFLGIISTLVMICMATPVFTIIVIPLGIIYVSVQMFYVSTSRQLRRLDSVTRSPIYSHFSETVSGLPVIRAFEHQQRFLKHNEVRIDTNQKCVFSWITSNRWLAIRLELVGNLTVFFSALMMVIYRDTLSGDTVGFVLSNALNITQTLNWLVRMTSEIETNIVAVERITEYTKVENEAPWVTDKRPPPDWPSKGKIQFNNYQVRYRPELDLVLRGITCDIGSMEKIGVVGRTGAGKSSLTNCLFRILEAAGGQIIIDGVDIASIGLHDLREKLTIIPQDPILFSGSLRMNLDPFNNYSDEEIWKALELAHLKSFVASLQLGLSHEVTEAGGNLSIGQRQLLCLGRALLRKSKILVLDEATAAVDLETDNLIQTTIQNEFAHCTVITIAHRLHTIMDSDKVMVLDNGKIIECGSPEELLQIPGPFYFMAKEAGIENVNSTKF
Substance,tested on,assay,system,conditions,endpoint,result
CCCCGGTATCCCATCCAAGGCGATCAGTCCAGAACTGGCTCTCGGAAGCGCTCGGGC (dsDNA),PTGES3,EMSA,"double-stranded DNA, one strand shown",,binding,no binding
B1 (UGT76G1),C=C1C[C@@]23CC[C@H]4[C@@](C)(CCC[C@@]4(C)C(=O)O[C@@H]4O[C@H](CO)[C@@H](O)[C@H](O)[C@H]4O[C@@H]4O[C@H](CO)[C@@H](O)[C@H](O)[C@H]4O)[C@@H]2CC[C@]1(O[C@@H]1O[C@H](CO)[C@@H](O)[C@H](O)[C@H]1O[C@@H]1O[C@H](CO)[C@@H](O)[C@H](O)[C@H]1O)C3,steady-state kinetics,,"pH 7.25, 40 °C",Km,35.6 µM
B2 (enzyme),Oc1cc(O)c2cc(O)c(-c3ccc(O)c(O)c3)[o+]c2c1,steady-state kinetics,,"pH 7.5, 30 °C",Km,730 µM
B3 (bioZ),CC(C)(COP(=O)(O)OP(=O)(O)OC[C@H]1O[C@@H](n2cnc3c(N)ncnc32)[C@H](O)[C@@H]1OP(=O)(O)O)[C@@H](O)C(=O)NCCC(=O)NCCSC(=O)CCCC(=O)O,steady-state kinetics,,,Km,41.1 µM
"ABCC2 (Homo sapiens, UniProt Q92887)",O=C(c1ccc(OCCN2CCCCC2)cc1)c1c(-c2ccc(O[C@@H]3O[C@H](C(=O)O)[C@@H](O)[C@H](O)[C@H]3O)cc2)sc2cc(O)ccc12,steady-state kinetics,Sf9 vesicles,"pH 7, 37 °C, not purified, with: ATP",Km,64.2 µM
B4 (SIRT5 R105A),CSCC[C@H](NC(=O)[C@H](CC(C)C)NC(=O)[C@H](CCCCNC(C)=O)NC(=O)[C@H](CCCCN)NC(=O)[C@H](Cc1c[nH]cn1)NC(=O)[C@H](CCCNC(=N)N)NC(=O)[C@H](CO)NC(=O)[C@@H](NC(=O)[C@H](CO)NC(=O)[C@H](CCC(N)=O)NC(=O)CNC(=O)[C@H](CCCCN)NC(=O)[C@@H](N)CCCCN)[C@@H](C)O)C(=O)N[C@@H](Cc1ccccc1)C(=O)N[C@@H](CCCCN)C(=O)N[C@H](C(=O)N[C@@H](CCC(=O)O)C(=O)NCC(=O)O)[C@@H](C)O,steady-state kinetics,,"pH 7.5, 37 °C, with: saturating NAD+",Km,832 µM
B5 (PTPN2),CC(C)[C@H](NC(=O)[C@H](CCC(=O)O)NC(=O)[C@H](CCC(=O)O)NC(=O)[C@H](Cc1ccc(O)cc1)NC(=O)[C@H](CCC(=O)O)NC(=O)[C@H](CC(=O)O)NC(=O)[C@H](CC(=O)O)NC(=O)[C@H](CCC(=O)O)NC(=O)c1ccc2c(c1)C1(OC2=O)c2ccc(O)cc2Oc2cc(O)ccc21)C(N)=O,steady-state kinetics,,pH 9.5,Km,2.8 µM
"rCR (Lodderomyces parapsilosis, UniProt A1X808)",COC(=O)CC(C)=O,steady-state kinetics,,"pH 7, 30 °C, with: NADH 0.5 mM",Km,280 µM
"DNA 1 GGCTCGCTACGGCTATACGG / DNA 2 GATTCGTATCGCCTATACCG / DNA 3 CGGTATAGGCGATACGAATCTTTTTCCGTATAGCCGTAGCGAGCC (DNA; 5-nt gap, s/ds junctions)",RAD24/RFC2/RFC3/RFC4/RFC5/DDC1/MEC3/RAD17 (Saccharomyces cerevisiae),cryo-EM,,,binding,binds
"DNA 1 GGATGGGACGTGGGCAGTAAGATGGACAGAAGACAGGTAGAATGACGGGTGCAGGGTAAA / DNA 2 TTTACCCTGCACCCGTCATTCTACCTGTCTTCTGT / DNA 3 CCATCTTACTGCCCACGTCCCATCC (dsDNA; nicked, blunt ends)","T1, xseA/xseB 1-456;1-80 H238A (Escherichia coli)",mass photometry,double-stranded DNA,,binding,binds
"enzyme (Acinetobacter baumannii, UniProt V5V8V7)",Nc1nc2c(ncn2[C@H]2C[C@H](OP(=O)(O)OP(=O)(O)O)[C@@H](COP(=O)(O)OP(=O)(O)O)O2)c(=O)[nH]1,steady-state kinetics,,"pH 7.5, 30 °C",Km,332 µM
"SLCO1B1 (Homo sapiens, UniProt Q9Y6L6)",O=C(c1ccc(OCCN2CCCCC2)cc1)c1c(-c2ccc(O)cc2)sc2cc(O[C@@H]3O[C@H](C(=O)O)[C@@H](O)[C@H](O)[C@H]3O)ccc12,steady-state kinetics,HEK293 cells,"pH 7.4, 37 °C",Km,48.8 µM
GATCAGACAGGAG (dsDNA),PTGES3,HDX-MS,"double-stranded DNA, one strand shown",,binding,binds
GTGCTGGCCCATTGACTTTCTCTAAGTCCT (dsDNA),"WRKY7 1-348 (Brassica napus, UniProt C5H9Z7)",EMSA,"double-stranded DNA, one strand shown",,binding,binds
"SLCO2B1 (Homo sapiens, UniProt O94956)",O=C(c1ccc(OCCN2CCCCC2)cc1)c1c(-c2ccc(O)cc2)sc2cc(O[C@@H]3O[C@H](C(=O)O)[C@@H](O)[C@H](O)[C@H]3O)ccc12,steady-state kinetics,HEK293 cells,"pH 7.4, 37 °C",Km,48.3 µM
DNA 1 GGATGGGACGTGGGCAGTAAGATGGACAGAAGACAGGTAGAATGACGGGTGCAGGGTAAA / DNA 2 TTTACCCTGCACCCGTCATTCTACCTGTCTTCTGTCCATCTTACTGCCCACGTCC (dsDNA; 5' overhang),"T1, xseA/xseB 1-456;1-80 H238A (Escherichia coli)",mass photometry,double-stranded DNA,,binding,binds
"ABCC3 (Homo sapiens, UniProt O15438)",O=C(c1ccc(OCCN2CCCCC2)cc1)c1c(-c2ccc(O)cc2)sc2cc(O[C@@H]3O[C@H](C(=O)O)[C@@H](O)[C@H](O)[C@H]3O)ccc12,steady-state kinetics,Sf9 vesicles,"pH 7, 37 °C, not purified, with: ATP",Km,3.92 µM
B6 (UGT1A4),CCCCN1C(=O)c2cccc3c(N4CCN(C)CC4)ccc(c23)C1=O,steady-state kinetics,,"Michaelis-Menten, UGT1A4",Km,14.8 µM and 15 µM
B7 (CASP10),CC[C@H](C)[C@H](NC(C)=O)C(=O)N[C@@H](CCC(=O)O)C(=O)N1CCC[C@H]1C(=O)N[C@@H](CC(=O)O)C(=O)Nc1ccc2c(C)cc(=O)oc2c1,steady-state kinetics,,37 °C,Km,22.7 µM
